# Experimental data of several laboratories.
# A part holds a random share of what one study measured.
# Sequence of UniProt P28335 (whole entry, looked up): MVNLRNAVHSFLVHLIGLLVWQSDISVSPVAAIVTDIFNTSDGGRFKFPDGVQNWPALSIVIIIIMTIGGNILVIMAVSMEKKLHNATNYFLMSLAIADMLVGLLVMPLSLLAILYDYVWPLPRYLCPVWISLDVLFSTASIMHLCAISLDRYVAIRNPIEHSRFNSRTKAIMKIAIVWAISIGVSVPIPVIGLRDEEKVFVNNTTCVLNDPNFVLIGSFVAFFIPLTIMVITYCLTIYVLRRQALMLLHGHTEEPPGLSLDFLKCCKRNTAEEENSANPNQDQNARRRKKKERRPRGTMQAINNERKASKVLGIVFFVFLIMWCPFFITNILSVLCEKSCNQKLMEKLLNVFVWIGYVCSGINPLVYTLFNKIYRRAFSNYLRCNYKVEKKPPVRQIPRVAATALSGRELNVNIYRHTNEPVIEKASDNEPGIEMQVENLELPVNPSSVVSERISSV
# Sequence of UniProt P28223 (whole entry, looked up): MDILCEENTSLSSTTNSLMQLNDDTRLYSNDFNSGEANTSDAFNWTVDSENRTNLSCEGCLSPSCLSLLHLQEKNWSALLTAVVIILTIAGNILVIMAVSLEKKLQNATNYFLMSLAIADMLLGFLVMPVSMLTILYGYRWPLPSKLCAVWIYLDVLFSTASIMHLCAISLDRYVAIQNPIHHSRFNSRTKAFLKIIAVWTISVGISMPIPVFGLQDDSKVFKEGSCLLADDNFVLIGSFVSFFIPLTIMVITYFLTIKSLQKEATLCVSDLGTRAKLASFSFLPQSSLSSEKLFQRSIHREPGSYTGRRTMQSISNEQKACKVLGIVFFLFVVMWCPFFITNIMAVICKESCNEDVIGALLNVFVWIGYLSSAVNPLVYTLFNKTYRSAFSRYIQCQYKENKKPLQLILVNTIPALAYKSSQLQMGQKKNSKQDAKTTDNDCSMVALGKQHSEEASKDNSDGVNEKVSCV
# Sequence of UniProt P08908 (whole entry, looked up): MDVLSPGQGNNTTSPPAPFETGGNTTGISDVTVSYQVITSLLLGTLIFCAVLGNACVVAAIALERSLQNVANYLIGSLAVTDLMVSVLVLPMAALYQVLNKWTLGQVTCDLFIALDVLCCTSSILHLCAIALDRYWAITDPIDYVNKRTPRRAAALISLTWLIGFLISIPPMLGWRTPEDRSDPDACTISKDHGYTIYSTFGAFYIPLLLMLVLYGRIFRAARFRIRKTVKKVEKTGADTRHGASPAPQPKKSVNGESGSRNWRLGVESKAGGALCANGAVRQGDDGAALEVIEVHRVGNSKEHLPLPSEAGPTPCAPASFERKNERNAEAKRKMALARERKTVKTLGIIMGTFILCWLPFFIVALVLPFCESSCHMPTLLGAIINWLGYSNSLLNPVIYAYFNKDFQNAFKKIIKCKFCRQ

# Set 1 — cell line: HEK-293T/ACE2; tested at: 10 µM; time: 16 h; reference: vehicle
SMILES,viability [%]
Cn1c(=O)c2c(ncn2CC(O)CO)n(C)c1=O (stereo not shown),97.3
CC[C@H]1OC(=O)[C@H](C)[C@@H](O[C@H]2C[C@@](C)(OC)[C@@H](O)[C@H](C)O2)[C@H](C)[C@@H](O[C@@H]2O[C@H](C)C[C@H](N(C)C)[C@H]2O)[C@](C)(OC)C[C@@H](C)C(=O)[C@H](C)[C@@H](O)[C@]1(C)O,101
C[C@]12CCC(=O)C=C1CC[C@@H]1[C@@H]2CC[C@@]2(C)[C@H]1CC[C@]2(C)O,98.8
NC(=O)c1cccnc1,101
COCCCOc1cc(C[C@@H](C[C@H](N)[C@@H](O)C[C@H](C(=O)NCC(C)(C)C(N)=O)C(C)C)C(C)C)ccc1OC,100
N#C/C(=C1/SC[C@@H](c2ccc(Cl)cc2Cl)S1)n1ccnc1,98.8
C[C@]12C=CC(=O)C=C1CC[C@@H]1[C@@H]2[C@@H](O)C[C@@]2(C)[C@H]1CC[C@]2(O)C(=O)CO,104
CCOc1nc2cccc(C(=O)O)c2n1Cc1ccc(-c2ccccc2-c2nnn[nH]2)cc1,98.3
NC(=O)c1cnccn1,101
CC(C)NCC(O)COc1cccc2[nH]ccc12 (stereo not shown),98.3
COc1ccc2[nH]c([S+]([O-])Cc3ncc(C)c(OC)c3C)nc2c1 (stereo not shown),96.2
CC(=O)N1CCN(c2ccc(OCC3COC(Cn4ccnc4)(c4ccc(Cl)cc4Cl)O3)cc2)CC1 (stereo not shown),104
CC1(C)S[C@@H]2[C@H](NC(=O)[C@H](N)c3ccccc3)C(=O)N2[C@H]1C(=O)O,98.7
COc1cc(C(C)=O)ccc1OCCCN1CCC(c2noc3cc(F)ccc23)CC1,99.8
CCCCCOC(=O)Nc1nc(=O)n([C@@H]2O[C@H](C)[C@@H](O)[C@H]2O)cc1F,101
OCCN1C[C@H](O)[C@@H](O)[C@H](O)[C@H]1CO,101

# Set 2 — organism: Sarcocystis neurona; read-out: parasite growth; tested at: 10 µM; time: 96 h; reference: untreated
SMILES,log2 fold change
O=c1[nH]cc(F)c(=O)[nH]1,-2.44
CNC1CC(c2ccc(Cl)c(Cl)c2)c2ccccc21 (stereo not shown),-0.2
Oc1c(Cl)cc(Cl)c2cccnc12,-4.75
CN1CCCC(n2nc(Cc3ccc(Cl)cc3)c3ccccc3c2=O)CC1 (stereo not shown),-2.57
C[C@]12CCC(=O)C=C1CC[C@@H]1[C@@H]2CC[C@@]2(C)[C@H]1CC[C@]2(C)O,-0.22
CCCC(C)(COC(N)=O)COC(=O)NC(C)C (stereo not shown),0.34
c1ccc2c3c([nH]c2c1)CNCC3,0.33
CC(C)N(CCC(C(N)=O)(c1ccccc1)c1ccccn1)C(C)C (stereo not shown),0.32
CCN(C(C)=O)c1cccc(-c2ccnc3c(C#N)cnn23)c1,0.26

# Set 3 — cell line: A-375; tested at: 100 µM; time: 18 h
Structure (SMILES),viability
C/C=C(\C)C(=O)N[C@@H](c1ccccc1)[C@@H](O)C(=O)O[C@H]1C[C@@]2(O)[C@@H](OC(=O)c3ccccc3)[C@@H]3[C@]4(OC(C)=O)CO[C@@H]4C[C@H](O)[C@@]3(C)C(=O)[C@H](OC(C)=O)C(=C1C)C2(C)C,55.4%
CCC(=O)O[C@H]1CC[C@H]2[C@@H]3CCC4=CC(=O)CC[C@]4(C)[C@H]3CC[C@]12C,15.9%
CCCCCCC(=O)O[C@H]1CC[C@H]2[C@@H]3CCC4=CC(=O)CC[C@]4(C)[C@H]3CC[C@]12C,7.71%
COc1ccc(OC)c([C@@H](O)[C@H](C)N)c1,90.9%
CCOC(=O)Nc1ccc(NCc2ccc(F)cc2)cc1N,95%
CCC1(c2cccc(O)c2)CCCCN(C)C1 (stereo not shown),97.8%
N[C@@H](Cc1ccc(N(CCCl)CCCl)cc1)C(=O)O,28.9%

# Set 4 — read-out: binding; technique: radioligand binding; tested at: 10 µM
# SMILES: CC(=O)Nc1c(F)cc(C(=O)N[C@H]2CC[C@H](O)CC2)cc1O[C@@H](C)c1ccccc1
target,inhibition
"5-hydroxytryptamine receptor 1A (HTR1A, Homo sapiens, UniProt P08908)",-8.96%
"5-hydroxytryptamine receptor 2C (HTR2C, Homo sapiens, UniProt P28335)",14%
"5-hydroxytryptamine receptor 2A (HTR2A, Homo sapiens, UniProt P28223)",-13.8%

# Other studies, line by line — cell line: HEK293T-ACE2-TMPRSS2; tested at: 10 µM
SMILES,viability [%]
CC(C)(C)NC(=S)N/N=C/C=N/NC(=S)NC(C)(C)C,161
C=CCNC1=C2C[C@@H](C)C[C@H](OC)[C@H](O)[C@@H](C)/C=C(\C)[C@H](OC(N)=O)[C@@H](OC)/C=C\C=C(/C)C(=O)NC(=CC1=O)C2=O,124

# Some of these lines once more (set 1):
SMILES,viability [%]
COc1ccc2[nH]c([S+]([O-])Cc3ncc(C)c(OC)c3C)nc2c1 (stereo not shown),96.2
NC(=O)c1cccnc1,101
C[C@]12CCC(=O)C=C1CC[C@@H]1[C@@H]2CC[C@@]2(C)[C@H]1CC[C@]2(C)O,98.8
